Published values collected from several papers.
Numbered parts are unrelated; each lists some results of a single study.

Block 1 — method: competition protein-binding microarray; molecule type: double-stranded DNA, one strand shown; matrix: in vitro; concentration: 2 µM; with: Cbf1 competitor, 0.05 µM; reading: higher = stronger binding; constant ends, left off below: … GTCTTGATTCGCTTGACGCTGCTG
Target: Phosphate system positive regulatory protein PHO4, full length, GST-tagged (PHO4, Saccharomyces cerevisiae, UniProt P07270, residues 1-312)
Setting: whole 60-bp probe, lowest competitor level
Target sequence (chain): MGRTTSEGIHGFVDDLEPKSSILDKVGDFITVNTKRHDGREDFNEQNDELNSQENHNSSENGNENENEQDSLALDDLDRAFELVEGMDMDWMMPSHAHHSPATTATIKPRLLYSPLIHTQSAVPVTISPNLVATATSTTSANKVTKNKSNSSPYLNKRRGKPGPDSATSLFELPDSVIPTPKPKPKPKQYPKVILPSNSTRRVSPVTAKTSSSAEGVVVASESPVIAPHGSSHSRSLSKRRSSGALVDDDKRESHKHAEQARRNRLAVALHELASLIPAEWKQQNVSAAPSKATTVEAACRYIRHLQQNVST
Oligonucleotide | fluorescence intensity [a.u.]
AAGCGAGGCGCAGATCTCGTGGTGAGTGATATAGTG | 8910
CTTCTGTAAATTTGTCTGGTGGGTGGACGCGCCCCG | 4470
GTAAGTCAAAATCCGCGCGTGACTCGTAAAGCGTTA | 7540
AAGCTCAATTCGAGTCACGTGGGTAGAAATATTACA | 16500
AAAGCGGTAATTTGAGATGTGGGTGCAGATATCTAT | 4530
ACCTAGAAATCGAGTCACGTGACGAAAATAAACAAG | 14200
CGTCCTAGTGATTTTCACGTGTTCTCCATGAGGAAG | 14700
AATAGGCTTTGCCTACACGTGACTCGTATTTGGTGT | 13500

Block 2 — effect on: enzyme activity; mode: inhibitor; concentration: 20 µM; setting: primary screen
Target: Replicase polyprotein 1ab, main protease (rep, Severe acute respiratory syndrome coronavirus 2, UniProt P0DTD1)
Compound | inhibition [%]
CC1=C(CC(=O)O)c2cc(F)ccc2/C1=C\c1ccc([S+](C)[O-])cc1 (stereo not shown) | 39.9
CN[C@H]1C(=O)N[C@@H]2Cc3ccc(cc3)Oc3cc4cc(c3O[C@@H]3O[C@H](C(=O)O)[C@@H](O)[C@H](O)[C@H]3NC(=O)CCCCCCCCC(C)C)Oc3ccc(cc3Cl)[C@@H](O)[C@@H]3NC(=O)[C@H](NC(=O)[C@@H]4NC(=O)[C@@H](NC2=O)c2cc(cc(O)c2Cl)Oc2cc1ccc2O)c1ccc(O)c(c1)-c1c(O[C@H]2O[C@H](CO)[C@@H](O)[C@H](O)[C@@H]2O)cc(O)cc1[C@@H](C(=O)NCCCN(C)C)NC3=O | 44.4
COc1cc(N(C)C)cc(CN(C)CCc2ccc([N+](=O)[O-])cc2)c1O | 93.4

Block 3 — cell line: HEK-293T/ACE2; concentration: 10 µM; time: 16 h; reference: vehicle
SMILES | viability [%]
CC1(C)S[C@@H]2[C@H](NC(=O)[C@H](N)c3ccccc3)C(=O)N2[C@H]1C(=O)O | 101
NS(=O)(=O)c1cc2c(cc1Cl)NCNS2(=O)=O | 102
O=C(O)c1cc(/N=N/c2ccc(S(=O)(=O)Nc3ccccn3)cc2)ccc1O | 98.3

Block 4 — method: universal PBM; molecule type: double-stranded DNA, one strand shown; matrix: in vitro; concentration: not given; reading: higher = stronger binding
Target: Sal-like protein 4, full length isoform B (SALL4, Homo sapiens, UniProt Q9UJQ4-2, residues 1-616)
Setting: 8-mer, flanks averaged, mean of replicates
Oligonucleotide | E-score
AAGGAGGA | 0.0895
AATCGGGA | -0.0293
GGGTACGA | -0.207
CGACGGGC | -0.163
ACGGAAAT | 0.118
TCAGGCGA | -0.238
ACAGCCAT | 0.0348
CAACGATC | -0.0209

Block 5 — method: RNA Bind-n-Seq; molecule type: RNA; matrix: in vitro; concentration: 200 nM; setting: whole 134-nt RNA, ends assumed; with: 150 mM KCl; reference: input library; reading: higher = stronger binding
Target: Ras GTPase-activating protein-binding protein 1, full length (G3BP1, Homo sapiens, UniProt Q13283)
UniProt Q13283, sequence (whole entry, looked up): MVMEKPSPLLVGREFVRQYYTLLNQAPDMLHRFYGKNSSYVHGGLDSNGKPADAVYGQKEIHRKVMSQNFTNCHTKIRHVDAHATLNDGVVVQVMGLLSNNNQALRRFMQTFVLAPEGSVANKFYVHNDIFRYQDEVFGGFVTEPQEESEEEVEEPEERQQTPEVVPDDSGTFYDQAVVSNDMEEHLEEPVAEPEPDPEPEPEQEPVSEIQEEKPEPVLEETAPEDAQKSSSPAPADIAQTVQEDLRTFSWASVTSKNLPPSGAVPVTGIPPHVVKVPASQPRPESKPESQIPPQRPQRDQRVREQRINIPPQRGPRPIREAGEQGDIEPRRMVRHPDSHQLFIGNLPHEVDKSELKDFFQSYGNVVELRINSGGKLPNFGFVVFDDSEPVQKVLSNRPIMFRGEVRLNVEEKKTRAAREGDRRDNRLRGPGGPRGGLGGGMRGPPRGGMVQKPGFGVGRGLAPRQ
Constant ends, left off below: GGGAGUUCUACAGUCCGACGAUC … UGGAAUUCUCGGGUGUCAAGG
Oligonucleotide | log2 enrichment
AGUCCUGUGCUACACAUCGUAUGUACCGAAUCGGGCCCCCGGGGCCCCCGGCCCCCGGAAAGUAUUAUGUUACGCCGUUCGGAUCUGCAC | -0.276
GUCCUGUGCUACACAUCGUAUGUACCGAAUCGGGGAAAAAGGGAAAAAGGAAAAAGGGAAAGUAUUAUGUUACGCCGUUCGGAUCUGCAC | -0.386
UCCUGUGCUACACAUCGUAUGUACCGAAUCGGGGUUUUUGGGGUUUUUGGGUUUUUGGGGAAAGUAUUAUGUUACGCCGUUCGGAUCUGC | 0.251
UUACAGAUGUAGAGCUAAAACGACUGAAGGAUGCUUUCAAGAGGACCUGUGGACUCUCAUAUUACAUGGGCCAGCACUGCUUCAUCCGGG | 0.335
UGGGAGGUGGAUUUUGUUUAGUUUUUUAGCUCAUUUCCAGGGGUGGGAAUUUUUUUUUAAUAUGUGUCAUGAAUAAAGUUGUUUUUGAAA | 0.138
CACAGACAACACGCACCCACACAGACACAGAGGGAAAAAGUUGGGAUGGGGACAGGGUGCACAGCAGGGCGGGGUAGGACCCCAGCCCCU | 0.74
UCAAGUCCUGUGCUACACAUCGUAUGUACCGAAUCGGGAGGGUUUGGGUUUGGGAAAGUAUUAUGUUACGCCGUUCGGAUCUGCACUUCC | 1
UCCUGUGCUACACAUCGUAUGUACCGAAUCAAACCCCCCCAAAUUUUUUUAAACCCAAAAAAGUAUUAUGUUACGCCGUUCGGAUCUGCA | 0.24

Block 6 — mode: inhibitor; concentration: 20 µM
Target: Replicase polyprotein 1ab, nsp13 helicase (rep, Severe acute respiratory syndrome coronavirus 2, UniProt P0DTD1)
SMILES | inhibition
CNCC(O)c1ccc(O)cc1 (stereo not shown) | 10%
Nc1c(S(=O)(=O)O)cc(Nc2cccc3ccccc23)c2c1C(=O)c1ccccc1C2=O | 43.2%
Nc1nc(-c2nn(Cc3ccccc3F)c3ncccc23)ncc1C1CC1 | 14.7%
CCCC(CCC)C(=O)O[C@H]1C[C@H]2CC[C@@H](C1)[N+]2(C)C | -0.56%
Cc1cc(Nc2cc(N3CCN(C)CC3)nc(Sc3ccc(NC(=O)C4CC4)cc3)n2)n[nH]1 | 5%
C#C[C@]1(O)CC[C@H]2[C@@H]3CCC4=CC(=O)CCC4=C3C=C[C@@]21CC | 10.5%
CC(C)[C@H]1C(=O)N[C@@H](CCCNC(=N)N)C(=O)NCC(=O)N[C@@H](CC(=O)O)C(=O)N[C@H](Cc2ccccc2)C(=O)N1C | 7.72%
COc1cccc(-c2c(C)n(Cc3c(F)cccc3C(F)(F)F)c(=O)n(C[C@H](NCCCC(=O)O)c3ccccc3)c2=O)c1F | 9.96%
O=C(Cc1ccc(Cl)c(Cl)c1)N1CCCCC1CN1CCCC1 (stereo not shown) | -0.03%
O=C1C(=O)N(Cc2ccc(Cl)c(Cl)c2)c2ccccc21 | 14.1%
CCNC(=O)c1[nH]nc(-c2cc(Cl)c(O)cc2O)c1-c1ccc(OC)cc1 | 4.3%
C[N+]1(C)[C@@H]2C[C@@H](OC(=O)C(O)(c3cccs3)c3cccs3)C[C@H]1[C@@H]1O[C@@H]12 | -1.78%
CC(=O)NCCNc1cc(Cl)nn2c(-c3cccc(S(=O)(=O)N(C)C)c3)c(C)nc12 | 9.09%
COc1cc(OC2CCN(C)CC2)ccc1Nc1ncc2c(n1)n(C1CCCC1)c(=O)n2C | 7.11%
COc1ccc(C(=O)c2c(C)n(CCN3CCOCC3)c3ccccc23)cc1 | 7.96%
Cc1cc(O)ccc1Cl | 6.74%
O=C(Nc1ccc(S(=O)(=O)C(F)(F)F)cc1)C1=CCN(c2ncccc2C(F)(F)F)CC1 | 26%
Cc1c(Cn2c(C)nc3c(C(=O)O)cc(N4CCOCC4)cc32)cccc1C(F)(F)F | 6.87%
CC1=NC[C@H](O)[C@@H](C(=O)O)N1 | -2.96%
Nc1nc2c(ccc3ccccc32)s1 | 0.33%
CC(Oc1c(Cl)cccc1Cl)C1=NCCN1 (stereo not shown) | 7.73%
CCN(CCCCOC(=O)c1ccc(OC)c(OC)c1)C(C)Cc1ccc(OC)cc1 (stereo not shown) | 2.18%
CCCCNc1ccc(C(=O)OCCN(C)C)cc1 | -2.05%
CC(=O)Nc1ccc(O)cc1 | 2.62%
O=C(COc1ccc(C(=O)c2ccccc2)cc1)NC1CCN(Cc2ccccc2)CC1 | 0.58%

A few entries again (block 6):
SMILES | inhibition
Nc1nc2c(ccc3ccccc32)s1 | 0.33%
COc1ccc(C(=O)c2c(C)n(CCN3CCOCC3)c3ccccc23)cc1 | 7.96%
Cc1cc(Nc2cc(N3CCN(C)CC3)nc(Sc3ccc(NC(=O)C4CC4)cc3)n2)n[nH]1 | 5%
CC(Oc1c(Cl)cccc1Cl)C1=NCCN1 (stereo not shown) | 7.73%
Cc1c(Cn2c(C)nc3c(C(=O)O)cc(N4CCOCC4)cc32)cccc1C(F)(F)F | 6.87%
O=C(COc1ccc(C(=O)c2ccccc2)cc1)NC1CCN(Cc2ccccc2)CC1 | 0.58%
C#C[C@]1(O)CC[C@H]2[C@@H]3CCC4=CC(=O)CCC4=C3C=C[C@@]21CC | 10.5%
